# Published values from different studies.
# Sequences of proteins named here, by UniProt entry; tags and fusion partners are left off. Residues count along the entry.
# UniProt P29704, 1-420 limits assumed: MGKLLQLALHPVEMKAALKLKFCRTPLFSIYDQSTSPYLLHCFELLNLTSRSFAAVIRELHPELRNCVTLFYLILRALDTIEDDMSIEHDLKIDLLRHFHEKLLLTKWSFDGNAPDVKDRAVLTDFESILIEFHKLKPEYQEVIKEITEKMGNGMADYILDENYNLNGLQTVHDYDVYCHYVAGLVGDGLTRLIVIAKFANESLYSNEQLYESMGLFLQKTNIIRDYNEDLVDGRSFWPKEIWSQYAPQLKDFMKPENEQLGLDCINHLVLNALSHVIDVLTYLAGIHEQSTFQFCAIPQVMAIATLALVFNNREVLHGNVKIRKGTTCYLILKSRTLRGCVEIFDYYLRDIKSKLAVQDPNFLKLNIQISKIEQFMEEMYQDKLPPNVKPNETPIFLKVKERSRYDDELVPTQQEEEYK
# UniProt O60928, whole entry M125R: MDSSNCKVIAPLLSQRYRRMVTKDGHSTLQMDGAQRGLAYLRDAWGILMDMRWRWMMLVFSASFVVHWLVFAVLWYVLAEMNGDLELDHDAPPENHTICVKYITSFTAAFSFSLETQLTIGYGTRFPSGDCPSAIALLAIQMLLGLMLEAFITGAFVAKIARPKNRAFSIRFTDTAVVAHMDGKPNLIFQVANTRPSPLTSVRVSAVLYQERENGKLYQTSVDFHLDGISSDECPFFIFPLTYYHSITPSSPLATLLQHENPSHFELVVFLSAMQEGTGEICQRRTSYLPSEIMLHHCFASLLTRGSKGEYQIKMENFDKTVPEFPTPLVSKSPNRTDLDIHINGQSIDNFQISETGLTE
# UniProt Q00960, 27-1482 limits assumed: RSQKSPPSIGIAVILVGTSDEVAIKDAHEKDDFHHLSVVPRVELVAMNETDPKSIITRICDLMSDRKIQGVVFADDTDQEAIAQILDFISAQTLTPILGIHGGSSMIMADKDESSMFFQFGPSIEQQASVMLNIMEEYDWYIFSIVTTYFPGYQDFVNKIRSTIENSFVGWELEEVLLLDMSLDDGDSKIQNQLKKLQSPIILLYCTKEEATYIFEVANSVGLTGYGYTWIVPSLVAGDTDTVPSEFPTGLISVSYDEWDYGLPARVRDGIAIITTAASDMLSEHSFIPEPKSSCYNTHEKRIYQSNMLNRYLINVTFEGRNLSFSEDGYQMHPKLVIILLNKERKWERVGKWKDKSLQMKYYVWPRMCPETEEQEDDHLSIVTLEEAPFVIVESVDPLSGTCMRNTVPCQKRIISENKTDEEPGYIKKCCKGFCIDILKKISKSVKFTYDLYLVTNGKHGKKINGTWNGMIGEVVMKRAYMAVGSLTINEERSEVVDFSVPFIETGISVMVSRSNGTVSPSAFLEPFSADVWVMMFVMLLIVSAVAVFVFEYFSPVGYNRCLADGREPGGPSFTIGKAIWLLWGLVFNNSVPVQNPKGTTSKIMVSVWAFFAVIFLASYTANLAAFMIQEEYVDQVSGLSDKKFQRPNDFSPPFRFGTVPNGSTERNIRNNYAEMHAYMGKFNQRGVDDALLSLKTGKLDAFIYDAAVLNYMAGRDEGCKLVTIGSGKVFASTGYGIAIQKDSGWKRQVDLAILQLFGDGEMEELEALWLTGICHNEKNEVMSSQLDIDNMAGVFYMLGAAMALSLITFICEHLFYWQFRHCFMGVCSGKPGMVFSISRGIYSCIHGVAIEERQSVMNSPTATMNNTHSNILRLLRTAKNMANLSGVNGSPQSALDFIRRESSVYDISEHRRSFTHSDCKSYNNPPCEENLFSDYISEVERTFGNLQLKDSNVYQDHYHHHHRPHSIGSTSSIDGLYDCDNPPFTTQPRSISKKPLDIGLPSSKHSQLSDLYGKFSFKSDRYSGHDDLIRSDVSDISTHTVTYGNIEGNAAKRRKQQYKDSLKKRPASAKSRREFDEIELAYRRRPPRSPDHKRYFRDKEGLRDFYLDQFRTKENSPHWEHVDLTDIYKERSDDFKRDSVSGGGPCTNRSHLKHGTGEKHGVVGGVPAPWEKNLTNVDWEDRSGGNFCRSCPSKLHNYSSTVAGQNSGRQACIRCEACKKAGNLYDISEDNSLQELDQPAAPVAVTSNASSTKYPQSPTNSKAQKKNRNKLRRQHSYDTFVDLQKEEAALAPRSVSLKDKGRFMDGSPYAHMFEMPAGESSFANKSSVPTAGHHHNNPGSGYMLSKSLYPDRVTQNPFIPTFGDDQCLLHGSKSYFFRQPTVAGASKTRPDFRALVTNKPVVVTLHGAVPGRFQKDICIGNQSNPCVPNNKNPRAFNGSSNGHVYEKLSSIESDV
# UniProt P81908, whole entry: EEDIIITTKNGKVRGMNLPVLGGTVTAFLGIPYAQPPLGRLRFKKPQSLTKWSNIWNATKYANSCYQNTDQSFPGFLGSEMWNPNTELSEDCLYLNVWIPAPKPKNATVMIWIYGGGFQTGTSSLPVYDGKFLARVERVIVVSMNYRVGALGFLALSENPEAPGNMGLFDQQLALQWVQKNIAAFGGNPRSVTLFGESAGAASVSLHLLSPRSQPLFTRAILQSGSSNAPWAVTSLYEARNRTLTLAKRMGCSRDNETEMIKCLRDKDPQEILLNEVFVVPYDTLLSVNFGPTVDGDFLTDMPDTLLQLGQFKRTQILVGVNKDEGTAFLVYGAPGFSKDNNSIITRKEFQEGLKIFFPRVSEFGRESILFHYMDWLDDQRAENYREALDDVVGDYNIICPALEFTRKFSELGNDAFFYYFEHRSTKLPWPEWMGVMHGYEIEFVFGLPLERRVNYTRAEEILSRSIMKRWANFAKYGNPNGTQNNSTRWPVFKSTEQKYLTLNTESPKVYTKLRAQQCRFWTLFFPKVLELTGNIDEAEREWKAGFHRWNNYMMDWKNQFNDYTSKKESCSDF
# UniProt O14638, whole entry: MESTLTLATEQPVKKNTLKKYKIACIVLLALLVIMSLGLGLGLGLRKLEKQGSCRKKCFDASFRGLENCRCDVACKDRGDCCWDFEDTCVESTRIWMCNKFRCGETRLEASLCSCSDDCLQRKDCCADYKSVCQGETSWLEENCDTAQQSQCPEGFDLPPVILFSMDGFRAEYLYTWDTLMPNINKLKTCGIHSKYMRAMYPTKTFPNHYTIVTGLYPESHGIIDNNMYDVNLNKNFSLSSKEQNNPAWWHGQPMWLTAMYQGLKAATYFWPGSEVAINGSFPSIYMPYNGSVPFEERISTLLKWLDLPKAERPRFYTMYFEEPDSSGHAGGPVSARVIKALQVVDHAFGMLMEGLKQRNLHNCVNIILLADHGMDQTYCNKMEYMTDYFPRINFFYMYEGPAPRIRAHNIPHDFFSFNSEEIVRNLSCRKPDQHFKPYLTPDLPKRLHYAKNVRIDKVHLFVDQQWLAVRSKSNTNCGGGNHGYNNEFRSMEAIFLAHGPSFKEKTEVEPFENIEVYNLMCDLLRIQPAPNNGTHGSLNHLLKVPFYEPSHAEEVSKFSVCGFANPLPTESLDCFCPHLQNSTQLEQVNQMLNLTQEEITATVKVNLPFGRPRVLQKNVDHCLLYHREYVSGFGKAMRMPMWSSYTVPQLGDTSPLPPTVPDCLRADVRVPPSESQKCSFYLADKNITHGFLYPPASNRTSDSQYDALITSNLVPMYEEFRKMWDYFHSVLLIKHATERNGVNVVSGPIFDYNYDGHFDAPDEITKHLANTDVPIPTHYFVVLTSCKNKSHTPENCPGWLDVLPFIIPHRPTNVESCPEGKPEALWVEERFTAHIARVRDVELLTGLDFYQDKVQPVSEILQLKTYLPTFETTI
# UniProt Q5M848, whole entry: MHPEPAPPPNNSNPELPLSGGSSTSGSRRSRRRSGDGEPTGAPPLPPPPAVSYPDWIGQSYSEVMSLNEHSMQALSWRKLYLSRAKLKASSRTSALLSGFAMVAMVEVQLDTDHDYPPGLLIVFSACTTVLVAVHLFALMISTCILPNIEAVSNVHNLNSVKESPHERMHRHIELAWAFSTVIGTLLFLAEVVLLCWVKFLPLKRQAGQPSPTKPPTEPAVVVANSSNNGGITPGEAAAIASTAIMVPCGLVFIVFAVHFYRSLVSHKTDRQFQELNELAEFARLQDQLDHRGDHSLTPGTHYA
# UniProt Q8E0N2, whole entry: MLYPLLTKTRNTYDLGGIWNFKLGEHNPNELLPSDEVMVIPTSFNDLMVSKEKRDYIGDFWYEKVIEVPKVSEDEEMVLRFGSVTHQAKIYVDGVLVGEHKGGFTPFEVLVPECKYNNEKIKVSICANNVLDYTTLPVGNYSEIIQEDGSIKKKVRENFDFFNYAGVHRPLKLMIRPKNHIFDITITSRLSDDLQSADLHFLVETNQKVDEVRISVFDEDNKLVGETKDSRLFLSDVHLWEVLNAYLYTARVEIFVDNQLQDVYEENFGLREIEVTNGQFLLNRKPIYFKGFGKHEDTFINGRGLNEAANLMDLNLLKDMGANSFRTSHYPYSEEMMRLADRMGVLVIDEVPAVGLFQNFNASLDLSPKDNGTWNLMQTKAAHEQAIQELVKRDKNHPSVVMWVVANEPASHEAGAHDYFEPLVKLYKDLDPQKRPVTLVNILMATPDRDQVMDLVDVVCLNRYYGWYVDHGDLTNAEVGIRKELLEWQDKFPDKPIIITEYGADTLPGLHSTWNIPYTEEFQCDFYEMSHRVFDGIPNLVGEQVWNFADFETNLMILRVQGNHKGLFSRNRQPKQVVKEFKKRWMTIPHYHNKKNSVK
# UniProt Q2FV99, 60-206 limits assumed: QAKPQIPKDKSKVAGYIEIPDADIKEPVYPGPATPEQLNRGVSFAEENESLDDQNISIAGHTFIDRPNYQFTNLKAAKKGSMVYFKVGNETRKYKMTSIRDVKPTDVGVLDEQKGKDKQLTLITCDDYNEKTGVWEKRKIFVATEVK
# UniProt O60603, whole entry, looked up: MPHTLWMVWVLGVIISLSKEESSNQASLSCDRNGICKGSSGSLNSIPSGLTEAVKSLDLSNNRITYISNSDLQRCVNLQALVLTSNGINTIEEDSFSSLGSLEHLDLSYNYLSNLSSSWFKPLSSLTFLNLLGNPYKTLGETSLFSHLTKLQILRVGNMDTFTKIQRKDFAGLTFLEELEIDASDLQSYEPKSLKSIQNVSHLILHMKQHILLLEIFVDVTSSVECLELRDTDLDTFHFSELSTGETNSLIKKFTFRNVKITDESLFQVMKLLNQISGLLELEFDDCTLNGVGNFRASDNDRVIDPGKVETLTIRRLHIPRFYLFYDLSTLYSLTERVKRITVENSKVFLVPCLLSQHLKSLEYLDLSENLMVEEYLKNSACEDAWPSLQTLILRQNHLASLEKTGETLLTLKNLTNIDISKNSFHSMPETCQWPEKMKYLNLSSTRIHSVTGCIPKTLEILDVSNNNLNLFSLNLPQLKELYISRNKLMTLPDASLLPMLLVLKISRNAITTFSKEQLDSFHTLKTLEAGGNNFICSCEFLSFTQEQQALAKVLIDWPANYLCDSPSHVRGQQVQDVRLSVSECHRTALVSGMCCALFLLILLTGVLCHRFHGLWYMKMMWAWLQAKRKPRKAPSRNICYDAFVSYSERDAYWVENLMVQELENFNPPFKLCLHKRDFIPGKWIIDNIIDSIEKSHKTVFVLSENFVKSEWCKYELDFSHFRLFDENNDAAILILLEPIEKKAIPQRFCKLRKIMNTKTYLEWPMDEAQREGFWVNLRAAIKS
# UniProt P42866, whole entry: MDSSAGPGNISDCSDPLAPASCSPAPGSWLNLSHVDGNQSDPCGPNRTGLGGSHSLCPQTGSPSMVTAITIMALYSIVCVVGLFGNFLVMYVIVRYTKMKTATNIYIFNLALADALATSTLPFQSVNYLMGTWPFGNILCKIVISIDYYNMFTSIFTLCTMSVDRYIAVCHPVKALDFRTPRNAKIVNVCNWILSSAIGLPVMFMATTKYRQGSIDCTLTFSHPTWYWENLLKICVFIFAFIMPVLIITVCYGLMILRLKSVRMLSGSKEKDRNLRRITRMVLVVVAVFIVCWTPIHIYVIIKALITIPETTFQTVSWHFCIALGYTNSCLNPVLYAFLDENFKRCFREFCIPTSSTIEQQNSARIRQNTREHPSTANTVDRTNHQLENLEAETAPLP
# Protocols differ between the studies behind these lines. ± gives the spread as reported.
# Squalene synthase ERG9: Squalene synthase ERG9 (Saccharomyces cerevisiae, UniProt P29704)
# KCNJ13 M125R: Inward rectifier potassium channel 13 (KCNJ13, Homo sapiens, UniProt O60928, M125R)
# Grin1/Grin2b ifenprodil binding site: Glutamate NMDA receptor; Grin1/Grin2b, ifenprodil binding site (Grin1/Grin2b, Rattus norvegicus, UniProt P35439+Q00960)
# SUMO-activating enzyme subunit 2 with SAE1: SUMO-activating enzyme subunit 2, with SAE1 (Homo sapiens, UniProt Q9UBT2)
# CDPK1: Calmodulin-domain protein kinase 1 (CDPK1, Toxoplasma gondii, UniProt Q9BJF5)
Compound,target,assay,test system,conditions,IC50
CCN(C)C(=O)Oc1ccc(/C=C/C(=O)NC2CCN(Cc3ccccc3)CC2)cc1,"Cholinesterase (BCHE, Equus caballus, UniProt P81908)","enzyme activity, inhibitor, Ellman",,,0.97 ± 0.02 µM
COc1cc(Nc2ncnc(-c3cccnc3Nc3cc(NC(=O)c4cccc(C(F)(F)F)c4)ccc3C)n2)cc(OC)c1OC,"STK10 (Homo sapiens, UniProt O94804)","enzyme activity, inhibitor",,catalytic domain,< 0.02 µM
C/C=C(\NC(=O)[C@@H](NC(=O)[C@@H](NC(=O)[C@H](C)NC(=O)C/C(C)=C/Cl)[C@@H](C)CC)[C@@H](C)O)C(=O)N[C@H]1CC[C@@H](O)N([C@@H](Cc2ccccc2)C(=O)N(C)[C@@H](Cc2ccc(O)cc2)C(=O)N[C@H](C(=O)O)C(C)C)C1=O,"CELA1 (Sus scrofa, UniProt P00772)","enzyme activity, inhibitor",,"30 min, pH 7.4, 22 °C, together with: MeOSuc-Ala-Ala-Pro-Val-AMC",3.08 µM
O=C(Oc1nsnc1N1CCCCC1)N1CCOCC1,"Immunoglobulin A1 protease autotransporter (Haemophilus influenzae, UniProt P44969)","IgA1 cleavage, inhibitor, sandwich ELISA",,"1 h preincubation, together with: 5 nM human IgA1",3.7 ± 0.3 µM
Cc1cc(S(=O)(=O)NC(C(=O)NO)C2CCOCC2)ccc1F (racemic),"MMP9 (Homo sapiens, UniProt P14780)","enzyme activity, fluorogenic peptide cleavage",,,21 µM
O=C([C@H]1O[C@H](O[C@H]2[C@H](O[C@@H]3O[C@H](C(=O)N4CCN(c5ncccn5)CC4)[C@@H](O[C@H]4O[C@@H](CNS(=O)(=O)O)[C@@H](OCc5ccc6ccccc6c5)[C@H](OCc5ccc6ccccc6c5)[C@H]4NS(=O)(=O)O)[C@H]3OCc3ccc4ccccc4c3)[C@@H](OCc3ccc4ccccc4c3)[C@H](NS(=O)(=O)O)C[C@@H]2NS(=O)(=O)O)[C@H](NS(=O)(=O)O)[C@@H](OCc2ccc3ccccc3c2)[C@@H]1OCc1ccc2ccccc2c1)N1CCN(c2ncccn2)CC1,"Heparanase (HPSE, Homo sapiens, UniProt Q9Y251)","enzyme activity, inhibitor, TR-FRET",,,< 0.025 µM
Nc1c(S(=O)(=O)Oc2ccccc2NC(=O)Cc2c[nH]c3ccccc23)ccc2ccccc12,"Ectonucleotide pyrophosphatase/phosphodiesterase family member 3 (Homo sapiens, UniProt O14638)",,,together with: p-nitrophenyl thymidine 5′-monophosphate,1.02 ± 0.004 µM
COc1ccc(CN2CCN(C(c3ccc(F)cc3)c3ccc(F)cc3)CC2)c(OC)c1OC,"RNMT (Homo sapiens, UniProt O43148)","enzyme activity, inhibitor",,,13.7 ± 0.8 µM
c1cc2c(nc1N1CCOCC1)sc1c(N3CCNCC3)nnnc12,"Beta-glucuronidase (uidA, Escherichia coli, UniProt P05804)","enzyme activity, inhibitor",,,0.03 ± 0.02 µM
Cc1cnccc1C(=O)Nc1nn(Cc2ccc(Cl)cc2Cl)c2ccccc12,"Calcium release-activated calcium channel protein 1, with STIM1 (Rattus norvegicus, UniProt Q5M848)","Ca2+ influx, inhibitor",RBL-2H3,together with: thapsigargin 1 µM,> 30 µM
C=C(CC/C=C(\C)CCC=C(C)C)CN1[C@@H](COP(=O)(O)CP(=O)(O)O)[C@]1(C)CC/C=C(\C)CCC=C(C)C (relative stereo),Squalene synthase ERG9,"enzyme activity, inhibitor",,"pH 7.2, tetrabutylammonium salt, together with: 100 µM [3H]FPP, no added pyrophosphate",99.8 ± 18.5 µM
c1cnc2sc3c(N4CCNCC4)ncnc3c2c1,"Beta-glucuronidase (Streptococcus agalactiae serotype V, UniProt Q8E0N2)","enzyme activity, inhibitor",,,13 ± 3 µM
O=c1ccn([C@@H]2O[C@H](COP(=O)(O)OP(=O)(O)OP(=O)(O)O)[C@@H](O)[C@]2(F)Br)c(=O)[nH]1,"DNA polymerase beta (POLB, Homo sapiens, UniProt P06746)","polymerase activity, inhibitor",,37 °C,> 100 µM
O=C(NC1CCN(Cc2cc(Cl)c3cccnc3c2O)CC1)c1cccc(F)c1,KCNJ13 M125R,"ion current, inhibitor, thallium flux",T-REx-HEK293,,5.7 µM
O=C(Nc1ccccc1OS(=O)(=O)c1ccc(OC(F)(F)F)cc1)c1cnccn1,"P2X purinoceptor 7 (P2RX7, Homo sapiens, UniProt Q99572)","calcium mobilisation, antagonist",MCF7 transfected with target,together with: Bz-ATP 100 µM,0.457 ± 0.036 µM
CN(CCCCCN(C)c1ccc(C(=N)N)cc1)c1ccc(C(=N)N)cc1,Grin1/Grin2b ifenprodil binding site,,,pH 7.4,16.6 µM
Cc1ccc(S(=O)(=O)N2CCC(C)(C(=O)Nc3ccc4cc(C(=O)O)ccc4c3)CC2)c(C)c1,"FAAH (Homo sapiens, UniProt O00519)",,,"pH 8, 37 °C, together with: OMP substrate 50 µM",52 µM
NC(=O)COc1c(SSc2cnn(-c3ccccc3)c(=O)c2OCC(N)=O)cnn(-c2ccccc2)c1=O,"srtA (Staphylococcus aureus, UniProt Q2FV99)",inhibitor,,,22 ± 2 µM
COc1ccc2c(=O)oc3c(OC)cc(CCN4CCCC4)c4c(=O)oc1c2c34,"TLR2 (Homo sapiens, UniProt O60603)","reporter gene, antagonist, SEAP reporter",HEK-Blue hTLR2 cells,"24 h, together with: Pam3CSK4 100 ng/mL",5.83 ± 2.19 µM
COc1ccc(Sc2cc(C(=O)N3Cc4ccccc4C3)ccc2O)cc1OC,"HSP90AB1 (Homo sapiens, UniProt P08238)","binding, fluorescence polarization",,together with: FITC-geldanamycin tracer,11.6 ± 1.07 µM
"CCOC(=O)/C=C1\[C@@H]2CCC[C@@]1(c1cccc(O)c1)CCN2CC1CC1CCNC(=O)c1cc2ccccc2[nH]1 (single isomer, unassigned)","Oprm1 (Mus musculus, UniProt P42866)","Gi2 activation, antagonist, BRET",,together with: DAMGO 100 nM,5.77 µM
O=C(NC1CCN(Cc2cc(Cl)c3cccnc3c2O)CC1)c1ccc(F)cc1,KCNJ13 M125R,"ion current, inhibitor, thallium flux",T-REx-HEK293,,12.1 µM
Cc1ccc(S(=O)(=O)N(CCOc2ccc(C(=N)N)cc2)CCOc2ccc(C(=N)N)cc2)cc1,Grin1/Grin2b ifenprodil binding site,,,pH 7.4,0.41 ± 0.13 µM
CCOc1ccc2cc(-c3nn(C(C)(C)C)c(N)c3C(N)=O)cnc2c1,"Calcium-dependent protein kinase 1 (Besnoitia besnoiti, UniProt A0A290U7L2)","enzyme activity, inhibitor, Kinase-Glo luminescence",,"90 min, 30 °C, together with: 10 µM ATP",0.012 µM
C=CC[C@@H](Nc1ccc(Cl)cc1)C12C=CC(O1)C(C(=O)OC)=C2C(=O)OC (stereo partly shown),SUMO-activating enzyme subunit 2 with SAE1,"SUMOylation, inhibitor, AlphaScreen",,together with: SUMO1-RanGAP1 conjugation,3.82 µM
Cc1cc(N)c2ccccc2[n+]1CCCCCCCCCCCCCC[n+]1c(C)cc(N)c2ccccc21,"GBA1 (Homo sapiens, UniProt P04062, R534H)","enzyme activity, inhibitor",,"pH 5.9, together with: resorufin β-glucoside 30 µM",8.26 µM
O=C(COC(=O)CNC(=O)C1CCCCC1)Nc1ccccc1Cl,"Cruzipain (Trypanosoma cruzi, UniProt P25779)","enzyme activity, inhibitor",,,0.52 µM
CC1CCN(Cc2cc(Cl)c3cccnc3c2O)CC1,KCNJ13 M125R,"ion current, inhibitor, thallium flux",T-REx-HEK293,,4.8 µM
O=C(O)CC1(n2cnnn2)CCCCC1,"VIM-2 (Escherichia coli, UniProt Q5U7L7)",,,"10 min preincubation, together with: FC5 fluorogenic substrate",858 µM
COC(=O)C1=C(C(=O)OC)C2([C@H](Cc3ccccc3)Nc3ccc(C)cc3)C=CC1O2 (stereo partly shown),SUMO-activating enzyme subunit 2 with SAE1,"SUMOylation, inhibitor, AlphaScreen",,together with: SUMO1-RanGAP1 conjugation,7.18 µM
Cc1ccc(N=Nc2c(O)ccc3cc(S(=O)(=O)O)ccc23)cc1,"Bcl-2-related protein A1 (Mus musculus, UniProt Q07440, C113S/P104K)","binding, fluorescence polarization",,together with: FITC-Noxa peptide,120 µM
NC(=O)c1ccc(-c2ncc(OCC3CCNCC3)nc2-c2ccc(-c3ccoc3)cc2)cc1,"Genome polyprotein, NS2B-NS3 protease (ZIKV, UniProt A0A024B7W1)","enzyme activity, inhibitor",,Gly4-Ser-Gly4-linked NS2B-NS3 protease,1.05 ± 0.07 µM
CC(=O)NCCc1c(COCc2[nH]c3cc(Br)ccc3c2CCNC(C)=O)[nH]c2cc(Br)ccc12,"KCNA4 (Homo sapiens, UniProt P22459)","ion current, inhibitor, automated whole-cell patch clamp",CHO-K1 inducible expression,,70 µM
O=C(NO)c1cccc(F)c1,"Histone deacetylase 6, CD2 catalytic domain (hdac6, Danio rerio, UniProt F8W4B7)","enzyme activity, inhibitor, fluorogenic",,"30 min, together with: Ac-RHK(Ac)K(Ac)-AMC",3.6 ± 0.7 µM
Cc1cnc(Nc2ccc(N3CCN(C)CC3)cc2)nc1Nc1cccc(NS(=O)(=O)C(C)(C)C)c1,"FLT3 (Homo sapiens, UniProt P36888)",kinase activity,,together with: ATP 10 µM,0.0009 µM
O=C(NC1CCN(Cc2cc(Cl)c3cccnc3c2O)CC1)C1CCCCC1,KCNJ13 M125R,"ion current, inhibitor, thallium flux",T-REx-HEK293,,9.6 µM
N#Cc1ccc(Sc2cc(C(N)=O)c3ccccc3n2)cc1,CDPK1,"kinase activity, inhibitor, ELISA",,"together with: syntide-2 substrate, ATP 25 µM",> 20 µM
C=CC[C@@H](Nc1ccccc1)C12C=CC(O1)C(C(=O)OC)=C2C(=O)OC (stereo partly shown),SUMO-activating enzyme subunit 2 with SAE1,"SUMOylation, inhibitor, AlphaScreen",,together with: SUMO1-RanGAP1 conjugation,1.69 µM
"C/C=C(\C)C(=O)N[C@@H](CCC(N)=O)C(=O)N[C@@H]1C(=O)N[C@@H](CCC(N)=O)C(=O)N[C@H]2CC[C@@H](O)N(C2=O)[C@@H](Cc2ccccc2)C(=O)N(C)[C@@H](Cc2ccc(O)cc2)C(=O)N[C@@H](C)C(=O)O[C@@H]1C (single isomer, unassigned)","Chymotrypsinogen A (Bos taurus, UniProt P00766)",inhibitor,,"10 min preincubation, pH 7.6, 37 °C, DMSO solvent, together with: N-succinyl-Phe-p-nitroanilide",5 µg/mL
CN(CCOc1ccc(C(=N)N)cc1)CCOc1ccc(C(=N)N)cc1,"Grin1/Grin2a/Grin2b, MK-801 channel binding site (Rattus norvegicus, UniProt P35439+Q00959+Q00960)",,,pH 7,21.2 ± 5.1 µM
COc1ccc(Sc2cc(C(N)=O)c3ccccc3n2)cc1,CDPK1,"kinase activity, inhibitor, ELISA",,"together with: syntide-2 substrate, ATP 25 µM",0.58 µM
CNc1ccc2c(n1)sc1c(N3CCNCC3)nc(NC)nc12,"Beta-glucuronidase (Lachnospira eligens, UniProt C4Z6Z2)","enzyme activity, inhibitor",,,1.1 ± 0.2 µM
COC(=O)C1=C(C(=O)OC)C2([C@@H](Cc3ccc(OC)cc3)Nc3ccccc3)C=CC1O2 (stereo partly shown),SUMO-activating enzyme subunit 2 with SAE1,"SUMOylation, inhibitor, AlphaScreen",,together with: SUMO1-RanGAP1 conjugation,0.53 µM
C=C(CC/C=C(\C)CCC=C(C)C)CN1[C@@H](COP(=O)(O)OP(=O)(O)O)[C@]1(C)CC/C=C(\C)CCC=C(C)C (relative stereo),Squalene synthase ERG9,"enzyme activity, inhibitor",,"pH 7.2, tetrabutylammonium salt, together with: 100 µM [3H]FPP, no added pyrophosphate",6.9 ± 1.6 µM
COc1cccc(-c2cc(NC(=O)Nc3ccc(C(F)(F)F)cc3)ccc2OC)c1,"Heat shock protein HSP 90-alpha, with Aha1 (HSP90AA1, Homo sapiens, UniProt P07900)","Hsp90-Aha1 interaction, inhibitor, AlphaScreen",,,2.83 ± 1.59 µM
CNc1nc(N2CCNCC2)c2sc3nc(N4CCOCC4)ccc3c2n1,"Beta-glucuronidase (Streptococcus agalactiae serotype V, UniProt Q8E0N2)","enzyme activity, inhibitor",,,0.4 ± 0.07 µM
O=C(O)C(Cc1nn[nH]n1)[C@@H]1CCN[C@H]1C(=O)O (relative stereo),"native AMPA receptor, rat",binding,rat cortical synaptosomes,together with: [3H]AMPA,> 100 µM
CN(C)c1ccc2c(n1)sc1c(N3CCNCC3)ncnc12,"Beta-glucuronidase (Streptococcus agalactiae serotype V, UniProt Q8E0N2)","enzyme activity, inhibitor",,,2.9 ± 0.6 µM
CNCc1ccc(-c2ncc(OCC3CCNCC3)nc2-c2ccc(-c3ccoc3)cc2)cc1,"Genome polyprotein, NS2B-NS3 protease (pol, Dengue virus type 3, UniProt Q6YMS4)","enzyme activity, inhibitor",,dengue virus type 3 NS2B-NS3 protease,0.53 ± 0.01 µM

# A few entries again:
Compound,target,assay,test system,conditions,IC50
CNCc1ccc(-c2ncc(OCC3CCNCC3)nc2-c2ccc(-c3ccoc3)cc2)cc1,"Genome polyprotein, NS2B-NS3 protease (pol, Dengue virus type 3, UniProt Q6YMS4)","enzyme activity, inhibitor",,dengue virus type 3 NS2B-NS3 protease,0.53 ± 0.01 µM
O=C(NC1CCN(Cc2cc(Cl)c3cccnc3c2O)CC1)c1ccc(F)cc1,KCNJ13 M125R,"ion current, inhibitor, thallium flux",T-REx-HEK293,,12.1 µM
COC(=O)C1=C(C(=O)OC)C2([C@H](Cc3ccccc3)Nc3ccc(C)cc3)C=CC1O2 (stereo partly shown),SUMO-activating enzyme subunit 2 with SAE1,"SUMOylation, inhibitor, AlphaScreen",,together with: SUMO1-RanGAP1 conjugation,7.18 µM
NC(=O)c1ccc(-c2ncc(OCC3CCNCC3)nc2-c2ccc(-c3ccoc3)cc2)cc1,"Genome polyprotein, NS2B-NS3 protease (ZIKV, UniProt A0A024B7W1)","enzyme activity, inhibitor",,Gly4-Ser-Gly4-linked NS2B-NS3 protease,1.05 ± 0.07 µM
